Results pooled from the literature.
“And” joins repeats or separate records; there may be more than shown.
Target: Serine/threonine-protein kinase SIK2 (SIK2, Homo sapiens, UniProt Q9H0K1)
Chain of UniProt Q9H0K1 (whole entry, looked up): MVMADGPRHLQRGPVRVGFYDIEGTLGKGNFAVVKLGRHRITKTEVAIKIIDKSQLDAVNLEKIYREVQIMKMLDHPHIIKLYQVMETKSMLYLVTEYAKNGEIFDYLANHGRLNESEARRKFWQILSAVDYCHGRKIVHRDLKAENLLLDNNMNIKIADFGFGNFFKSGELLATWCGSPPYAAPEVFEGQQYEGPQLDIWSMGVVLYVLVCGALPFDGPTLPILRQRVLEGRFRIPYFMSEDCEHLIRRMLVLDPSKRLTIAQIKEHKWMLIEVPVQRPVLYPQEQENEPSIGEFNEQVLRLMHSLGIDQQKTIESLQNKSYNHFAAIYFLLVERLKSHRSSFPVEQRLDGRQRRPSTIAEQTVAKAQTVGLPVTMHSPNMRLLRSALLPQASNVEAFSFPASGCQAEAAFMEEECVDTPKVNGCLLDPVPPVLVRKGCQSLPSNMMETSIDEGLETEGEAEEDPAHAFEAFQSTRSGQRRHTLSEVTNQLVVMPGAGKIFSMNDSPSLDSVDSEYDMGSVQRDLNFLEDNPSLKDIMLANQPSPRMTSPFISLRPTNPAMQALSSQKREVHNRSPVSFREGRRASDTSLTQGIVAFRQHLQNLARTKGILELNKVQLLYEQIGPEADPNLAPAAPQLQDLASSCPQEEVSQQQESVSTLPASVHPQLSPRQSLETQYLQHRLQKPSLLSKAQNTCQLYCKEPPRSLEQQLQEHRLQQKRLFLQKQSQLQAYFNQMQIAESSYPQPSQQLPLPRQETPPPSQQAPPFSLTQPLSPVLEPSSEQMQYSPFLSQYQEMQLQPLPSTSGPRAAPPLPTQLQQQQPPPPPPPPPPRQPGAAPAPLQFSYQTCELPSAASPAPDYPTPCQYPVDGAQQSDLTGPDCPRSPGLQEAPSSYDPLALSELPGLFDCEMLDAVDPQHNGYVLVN

SMILES	test	system	setting	how to read	quantity	result
CCn1cc(C(=O)O)c(=O)c2c(N)c(F)c(NC3CCCCC3)cc21	kinase activity	–	0.1 µM, together with: ATP at Km	–	inhibition	-5.6%
CCN1CCN(Cc2ccc(NC(=O)c3ccc(C)c(NC(=O)c4cncc(-c5cccs5)c4)c3)cc2C(F)(F)F)CC1	binding, competition with immobilised ligand	–	1 µM	–	remaining binding	32%
Cc1cnc2nc1Nc1cccc(c1)COC/C=C/COCc1cc(ccc1OCCN1CCOCC1)N2	binding, competition with immobilised ligand	–	0.1 µM	–	remaining binding	86%
Cc1cccc(O[C@H]2CCC[C@@H](C(C)CNCc3ccncc3)C2)c1 (relative stereo)	enzyme activity, inhibitor	–	1 µM	–	inhibition	3%
CCN1CCN(Cc2ccc(C(=O)Nc3ccc(C)c(NCc4cnc5[nH]ccc5c4OC)c3)cc2C(F)(F)F)CC1	binding, competition with immobilised ligand	–	1 µM	–	remaining binding	52%
C=CC(=O)N1CCc2ccc(-n3c(=O)ccc4cnc5ccc(-c6cnn(C)c6)cc5c43)cc21	KINOMEscan	–	1 µM	relative to: DMSO control	remaining binding	93%
Cc1ccc(C(=O)Nc2ccc(CN3CCN(C)CC3)c(C(F)(F)F)c2)cc1C#Cc1cnc2cccnn12	target engagement, NanoBRET	human cells	–	–	Hill slope	0.176
COc1cc(Nc2nc(C)cc(-c3cnn4nc(OC)ccc34)n2)cc(C(F)(F)F)c1	binding, competition with immobilised ligand	–	1 µM	–	remaining binding	100%
COCC12C(=O)NC3C4(C(OC)CC1O)C1CC5(O)C(OC)C(O)C(OC(C)=O)(C1C5OC(=O)c1ccccc1)C3(O)C(OC)C24 (stereo not drawn)	kinase activity, inhibitor, ProQinase kinase profiling	–	25 µM	relative to: control	remaining activity	104% and 92%
C=CC(=O)N1CCCC(n2c(=O)c3ncccc3n(Cc3ccc(Oc4ccccc4)cc3)c2=O)C1 (stereo not drawn)	cell-free assay, competition with immobilised ligand	–	1 µM	–	remaining binding	99%
C=CC(=O)Nc1cccc(-c2cnc3[nH]cc(C(=O)NC(C)(C)C)c3n2)c1	kinase activity	–	0.1 µM	–	inhibition	16%
NC(=O)[C@@H](O)C[C@H]1CCc2sc3ncnc(O[C@H]4CC[C@H](N5CCOCC5)CC4)c3c21	enzyme activity, inhibitor	–	10 µM	–	inhibition	20%
Nc1ncc(-c2cc(-c3cnn(CC(F)(F)F)c3)ncc2F)nc1C(=O)NC1CNCC(F)C1 (stereo not drawn)	enzyme activity	–	1 µM	relative to: DMSO control	remaining activity	87.1%
CN1CCN(Cc2ccc(-c3ccc(CO[C@H]4CCC[C@@H]4NC(=O)c4cc(-c5cnn(C)c5)cnc4N)cc3)cc2)CC1	enzyme activity, inhibitor	–	0.1 µM	–	inhibition	17%
O=C(Cc1ccc(OCc2ccccc2)cc1)NC1(C(=O)O)CCN(C(=O)c2ccc(-c3cccc(Cl)c3)cc2)CC1	enzyme activity, inhibitor	–	10 µM	–	activity vs control	111%
